Results pooled from the literature.
Every numbered part comes from another study and shows a few of its results, in no order.

Series 1
Compound: COc1cc(C(=O)N2CCC(N3CCN(C)CC3)CC2)ccc1Nc1ncc2c(n1)N(C)c1ccccc1C(=O)N2C
Method: KINOMEscan
Tested at: 10 µM
Reference: DMSO control
Direction: lower = stronger binding
Measurement: binding
target = LTK; value = 32%
target = CDC2L2; value = 82%
target = TXK; value = 91%
target = CASK; value = 85%
target = GRK4; value = 86%
target = PKN1; value = 100%
target = ANKK1; value = 100%
target = NDR2; value = 100%
target = PIK3CA; value = 74%
target = DYRK1A; value = 99%
target = PFTK1; value = 81%
target = ASK2; value = 100%
target = EPHB1; value = 98%
target = DAPK1; value = 73%
target = RIPK2; value = 100%
target = SRC; value = 100%
target = STK35; value = 100%

Series 2
Target: Serine/threonine-protein kinase 26 (STK26, Homo sapiens, UniProt Q9P289)
Chain of UniProt Q9P289 (whole entry, looked up): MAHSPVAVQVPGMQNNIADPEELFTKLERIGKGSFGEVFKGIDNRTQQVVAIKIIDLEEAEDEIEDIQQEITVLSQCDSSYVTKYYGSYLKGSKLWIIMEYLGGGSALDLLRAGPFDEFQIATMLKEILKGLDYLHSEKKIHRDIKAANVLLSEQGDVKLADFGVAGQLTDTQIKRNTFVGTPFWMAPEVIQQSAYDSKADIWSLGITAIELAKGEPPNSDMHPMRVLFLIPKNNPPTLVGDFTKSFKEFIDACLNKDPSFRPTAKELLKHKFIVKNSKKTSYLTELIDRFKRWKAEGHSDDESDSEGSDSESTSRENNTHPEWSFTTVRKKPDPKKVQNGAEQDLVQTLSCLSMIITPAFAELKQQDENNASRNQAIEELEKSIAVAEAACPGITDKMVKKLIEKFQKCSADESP
Read-out: enzyme activity
Action: inhibitor
Tested at: 0.5 µM
Reference: control
Measurement: remaining activity
Compound = O=c1cc(N2CCOCC2)oc2c1ccc1ccccc12; value = 93.2%
Compound = Cn1cc(/C=C2\C(=O)Nc3ccc(S(N)(=O)=O)cc32)c2ccccc21; value = 101%
Compound = Cc1ccc(NC(=O)c2ccc(CN3CCN(C)CC3)cc2)cc1Nc1nccc(-c2cccnc2)n1; value = 103%
Compound = CC(C)[C@H](CO)Nc1nc(Nc2cccc(Cl)c2)c2ncn(C(C)C)c2n1; value = 100%
Compound = CCC(=O)Nc1ccc2ncnc(Nc3cccc(Br)c3)c2c1; value = 97.6%
Compound = CC(=O)O/N=C1/C(c2c(O)[nH]c3cc(Br)ccc23)=Nc2ccccc21; value = 78.7%
Compound = COc1cc2ncc(-c3ccccc3)nc2cc1OC; value = 109%
Compound = CC(C)c1nn(-c2c(Cl)cccc2Cl)c2nc(Cc3ccc(OCCO)cc3)[nH]c(=O)c12; value = 46.8%
Compound = COc1cc2ncnc(N3CCN(C(=O)Nc4ccc(Oc5ccccc5)cc4)CC3)c2cc1OC; value = 95.4%
Compound = COc1ccc(Cl)cc1NC(=O)Nc1cc(C)nc2ccccc12; value = 77.6%
Compound = O=C1NC(=O)/C(=C/c2ccc3nccnc3c2)S1; value = 91%

Series 3
SMILES: CCNC(=O)c1cc2c(N3CCOC[C@H]3C)ccnc2n1C
Tested at: 1 µM
Reference: DMSO
Measurement: viability
cell line = normal colon patient-derived organoid sample E; value = 113%
cell line = normal colon patient-derived organoid sample G; value = 118%
cell line = normal colon patient-derived organoid sample H; value = 114%
cell line = normal colon patient-derived organoid sample D; value = 128%
cell line = normal colon patient-derived organoids; assay = CellTiter-Glo; conditions = average of five organoid lines; value = 115%
cell line = normal colon patient-derived organoid sample F; value = 101%

Series 4
Target: Synaptic vesicular amine transporter (SLC18A2, Homo sapiens, UniProt Q05940)
Chain of UniProt Q05940 (whole entry, looked up): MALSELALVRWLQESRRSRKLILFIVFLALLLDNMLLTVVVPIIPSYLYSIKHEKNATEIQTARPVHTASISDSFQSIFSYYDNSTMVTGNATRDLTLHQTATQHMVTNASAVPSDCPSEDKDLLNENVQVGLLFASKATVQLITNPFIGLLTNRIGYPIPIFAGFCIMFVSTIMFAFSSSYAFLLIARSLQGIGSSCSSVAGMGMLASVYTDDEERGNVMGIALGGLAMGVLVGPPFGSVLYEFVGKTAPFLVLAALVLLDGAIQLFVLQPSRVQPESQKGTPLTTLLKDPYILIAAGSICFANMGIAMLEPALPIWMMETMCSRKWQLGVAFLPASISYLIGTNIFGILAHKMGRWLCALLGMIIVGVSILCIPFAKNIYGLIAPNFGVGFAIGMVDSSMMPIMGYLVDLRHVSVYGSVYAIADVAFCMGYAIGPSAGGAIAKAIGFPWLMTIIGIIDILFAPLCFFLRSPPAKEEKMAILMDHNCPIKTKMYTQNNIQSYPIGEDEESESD
Action: inhibitor
Notes: literature data
Measurement: IC50
Compound = COCCCN1CCC(NC(=O)c2cc(Cl)c(N)c3c2OCC3)CC1; value = 1.9 µM
Compound = COCCCC/C(=N\OCCN)c1ccc(C(F)(F)F)cc1; value = 21.3 µM
Compound = CCCN1C[C@H](CSC)C[C@@H]2c3cccc4[nH]cc(c34)C[C@H]21; value = > 10 µM
Compound = CC(COc1ccccc1)NC(C)C(O)c1ccc(O)cc1 (stereo not shown); value = 3.93 µM
Compound = CC(NCCc1ccc(O)cc1)C(O)c1ccc(O)cc1 (stereo not shown); value = 0.252 µM
Compound = Cn1cnc2c(F)c(Nc3ccc(Br)cc3Cl)c(C(=O)NOCCO)cc21; value = > 10 µM
Compound = Nc1nnc(-c2cccc(Cl)c2Cl)c(N)n1; value = > 10 µM
Compound = CC(C)NCC(O)COc1cccc2[nH]ccc12 (stereo not shown); value = > 10 µM
Compound = CC(C(O)c1ccc(O)cc1)N1CCC(Cc2ccccc2)CC1 (stereo not shown); value = 0.312 µM
Compound = CC1=C(/C=C/C(C)=C/C=C/C(C)=C\C(=O)O)C(C)(C)CCC1; value = > 10 µM
Compound = CCn1c(=O)c2c(nc(/C=C/c3ccc(OC)c(OC)c3)n2C)n(CC)c1=O; value = > 10 µM
Compound = CC(C)(C)NC(=O)[C@@H]1CN(Cc2cccnc2)CCN1C[C@@H](O)C[C@@H](Cc1ccccc1)C(=O)N[C@H]1c2ccccc2C[C@H]1O; value = > 10 µM
Compound = COc1c(N2C[C@@H]3CCCN[C@@H]3C2)c(F)cc2c(=O)c(C(=O)O)cn(C3CC3)c12; value = > 10 µM
Compound = NNC(=O)c1ccncc1; value = > 10 µM
Compound = CN(C)CCCN1c2ccccc2CCc2ccccc21; value = > 10 µM
Compound = N#Cc1ccc(C(c2ccc(C#N)cc2)n2cncn2)cc1; value = > 10 µM
Compound = COc1ccc2[nH]c([S+]([O-])Cc3ncc(C)c(OC)c3C)nc2c1 (stereo not shown); value = > 10 µM
Compound = COc1cc2c(cc1OC)CC(=O)N(CCCN(C)C[C@H]1Cc3cc(OC)c(OC)cc31)CC2; value = > 10 µM

Repeated from above (series 1):
target = NDR2; value = 100%
target = PIK3CA; value = 74%
target = DYRK1A; value = 99%
target = PFTK1; value = 81%
target = ASK2; value = 100%
target = EPHB1; value = 98%
target = DAPK1; value = 73%
